Results pooled from the literature.
Protocols differ between the studies behind these lines. Numbers after ± are the reported error.
MAOA: Amine oxidase [flavin-containing] A (MAOA, Homo sapiens, UniProt P21397)
fabG: 3-oxoacyl-[acyl-carrier-protein] reductase FabG (fabG, Pseudomonas aeruginosa, UniProt O54438)
TST: Thiosulfate sulfurtransferase (TST, Bos taurus, UniProt P00586)
ORF1 3C-like protease: Genome polyprotein, 3C-like protease (ORF1, Hu/NV/NV/1968/US, UniProt Q83883)

Structure (SMILES)	target or system	test	system	conditions	how to read	endpoint	value
O=C(Nc1cccc(Br)c1)c1ccc2c(c1)C(=O)NC2=O	MAOA					IC50	> 40 µM
CCCCCCCCCCCCCC	uncharacterized protein (Bradysia odoriphaga, UniProt A0A2S0X9G4)	binding, competitive fluorescence displacement		pH 7.4		IC50	> 50 µM
NC(=O)NO	NADH dehydrogenase [ubiquinone] iron-sulfur protein 7, mitochondrial/NADH dehydrogenase [ubiquinone] iron-sulfur protein 2, mitochondrial/MT-ND1 (Homo sapiens, UniProt O75251+O75306+P03886)	oxygen consumption rate, inhibitor, Seahorse XF-96	HCT-116	complex I-driven		IC50	> 3000 µM
CN1CCN(c2ccc(Nc3ncc4cc(C#N)c(=O)n(C5CCCC5)c4n3)cc2)CC1	Serine/threonine-protein kinase N2 (PKN2, Homo sapiens, UniProt Q16513)					IC50	> 10 µM
C/C(=N\NC(=O)c1cccc(S(=O)(=O)N2CCOCC2)c1)c1cc(Cl)ccc1O	Lysine-specific histone demethylase 1A, with CoREST (KDM1A, Homo sapiens, UniProt O60341)	demethylase activity, inhibitor		LSD1-CoREST complex		IC50	0.136 µM
COc1ccccc1Nc1cccc2nccnc12	fabG	enzyme activity, inhibitor, NADPH fluorescence		reverse reaction, geometric mean, with: 3-OH-decanoyl-NAC, NADP		IC50	6.4 µM
O=S(=O)(Nc1ccc(-c2nc3cc(NS(=O)(=O)c4cccc5ccccc45)ccc3o2)cc1)c1cccc2ccccc12	TST	enzyme activity, inhibitor		native rhodanese counter-screen		IC50	> 100 µM
N#Cc1c(N)nc(-c2ccccc2)nc1C(F)(F)F	fabG	enzyme activity, inhibitor, NADPH fluorescence		reverse reaction, geometric mean, with: 3-OH-decanoyl-NAC, NADP		IC50	1.2 µM
CCCCCCCCC=O	uncharacterized protein (Bradysia odoriphaga, UniProt A0A2S0X9G4)	binding, competitive fluorescence displacement		pH 7.4		IC50	> 50 µM
CCn1c(-c2nc3ccc(C(=O)N4CCCC(N)C4)cc3n2C)cc2ccccc21 (stereo not drawn)	Histamine H1 receptor (HRH1, Homo sapiens, UniProt P35367)	antagonist, intracellular Ca2+ luminescence				IC50	> 39.8 µM
CC(=O)OCC(C)C	uncharacterized protein (Drosophila suzukii, UniProt A0AB39ZCT4)	binding, bis-ANS competition fluorescence		pH 7.4, with: bis-ANS		IC50	> 50 µM
CC(C)C[C@H](NC(=O)[C@H](Cc1cccc2ccccc12)NC(=O)OCc1ccccc1)C(=O)N[C@H](CO)CCC(=O)N1CCC1	ORF1 3C-like protease	protease activity, inhibitor, FRET	GI.1	37 °C		IC50	> 1 µM
CN1C(=O)[C@@H](Cc2ccc(O)cc2)NC(=O)CNC(=O)[C@H](Cc2ccc3ccccc3c2)NC(=O)[C@H](CCCNC(=N)N)NC(=O)[C@H]1CCCNC(=O)CCCCNC(=O)CCCCNC(=O)CN1CCN(CC(=O)O)CCN(CC(=O)O)CCN(CC(=O)O)CC1	C-X-C chemokine receptor type 4 (CXCR4, Homo sapiens, UniProt P61073)					IC50	0.123 ± 0.025 µM
Cc1ccc(CNC(=O)N2CCC[C@]3(CCN(Cc4ccc(Cl)c(Cl)c4)C3)C2)cc1	Serine/threonine-protein kinase/endoribonuclease IRE1 (ERN1, Homo sapiens, UniProt O75460)	RNase activity, inhibitor, FRET suppression		90 min preincubation, with: XBP1 RNA substrate		IC50	17.1 µM
O=C(Nc1ccc(Cl)c(Cl)c1)c1ccc2c(c1)C(=O)NC2=O	MAOA					IC50	> 40 µM
CCCCCC/C=C\CC/C=C\CCCCCCCCCCCCCCC	uncharacterized protein (Drosophila suzukii, UniProt A0AB39ZCT4)	binding, bis-ANS competition fluorescence		pH 7.4, with: bis-ANS		IC50	> 50 µM
c1ccc(Oc2ccc(Nc3ccc4ncc(OCC5CCNCC5)nc4c3)cc2)cc1	Protein ENL, with DOT1L (MLLT1, Homo sapiens, UniProt Q03111)	AlphaScreen				IC50	1.5 ± 0.31 µM
O=C(NO)c1ccc(Cn2cnc3c(Nc4ccc(Cl)cc4)ncnc32)cc1	RAC-beta serine/threonine-protein kinase (AKT2, Homo sapiens, UniProt P31751)			with: ATP 10 µM		IC50	> 20 µM
O=C(Nc1ccc(F)cc1)c1ccc2c(c1)C(=O)NC2=O	MAOA					IC50	> 40 µM
Cn1cc(C(=O)N2CCc3ccccc32)c2ccccc21	fabG	enzyme activity, inhibitor, NADPH fluorescence		reverse reaction, geometric mean, with: 3-OH-decanoyl-NAC, NADP		IC50	8.8 µM
CCCCCCCCCCCCCCCC	uncharacterized protein (Bradysia odoriphaga, UniProt A0A2S0X9G4)	binding, competitive fluorescence displacement		pH 7.4		IC50	> 50 µM
Cc1cc(S(=O)(=O)NCCO[C@H]2CC[C@H](CN3CCC(c4ccn5c(N6CCC(=O)NC6=O)cnc5c4)CC3)CC2)ccc1Nc1ncc2cc(Cl)c(=O)n(C3CCCC3)c2n1	Cyclin-dependent kinase 1, with cyclin B1 (CDK1, Homo sapiens, UniProt P06493)	enzyme activity, inhibitor		with: ATP 100 µM		IC50	0.1 µM
CCCCCCCCCCCC(=O)OC	uncharacterized protein (Drosophila suzukii, UniProt A0AB39ZGK5)	binding, bis-ANS competition fluorescence		pH 7.4, with: bis-ANS		IC50	> 50 µM
CC(C)C[C@H](NC(=O)[C@H](Cc1cccc2ccccc12)NC(=O)OCc1ccccc1)C(=O)NC(C[C@@H]1CCNC1=O)C1CO1 (stereo partly drawn)	ORF1 3C-like protease	protease activity, inhibitor, FRET	GI.1	37 °C		IC50	> 100 µM
CC[N+](CC)(CC(=O)Nc1c(C)cccc1C)Cc1ccccc1	uncharacterized protein (Drosophila suzukii, UniProt A0AB39ZGK5)	binding, bis-ANS competition fluorescence		pH 7.4, with: bis-ANS		IC50	> 50 µM
O=S(=O)(Nc1ccc(-c2nc3cc(NS(=O)(=O)c4ccccc4Cl)ccc3o2)cc1)c1ccccc1Cl	TST	enzyme activity, inhibitor		native rhodanese counter-screen		IC50	> 100 µM
O=c1ccc2ccccc2o1	uncharacterized protein (Drosophila suzukii, UniProt A0AB39ZCT4)	binding, bis-ANS competition fluorescence		pH 7.4, with: bis-ANS		IC50	13.6 µM

Structure (SMILES)	target or system	test	system	conditions	how to read	endpoint	value
CC(=O)/C=C/C1=C(C)CCCC1(C)C	uncharacterized protein (Bradysia odoriphaga, UniProt A0A2S0X9G4)	binding, competitive fluorescence displacement		pH 7.4		IC50	30 µM
OC[C@H]1O[C@@](CO)(O[C@H]2O[C@H](CO)[C@@H](O)[C@H](O)[C@H]2O)[C@@H](O)[C@@H]1O	uncharacterized protein (Drosophila suzukii, UniProt A0AB39ZGK5)	binding, bis-ANS competition fluorescence		pH 7.4, with: bis-ANS		IC50	> 50 µM
O=C(O)c1ccc(NS(=O)(=O)c2ccc(Cl)c(Cl)c2)c2ncccc12	Estradiol 17-beta-dehydrogenase 11 (Homo sapiens, UniProt Q8NBQ5)	enzyme activity, inhibitor		with: 20-HETE ethanolamide substrate		IC50	> 100 µM
COc1ccc2c(c1)CN(C(=O)CCN1CCC(Cc3ccccc3)CC1)CC[S@@+]2[O-]	Potassium voltage-gated channel subfamily KQT member 1, with KCNE1 (KCNQ1, Homo sapiens, UniProt P51787)	IKs current, inhibitor, whole-cell patch clamp	stable cell line			IC50	> 100 µM
NS(=O)(=O)c1ccc(Nc2nc(-c3ccc(F)cc3F)cs2)cc1	fabG	enzyme activity, inhibitor, NADPH fluorescence		reverse reaction, geometric mean, with: 3-OH-decanoyl-NAC, NADP		IC50	11.5 µM
Cn1cc(-c2ccc(-c3cncc(Cl)c3N3CCC4(CCNC4=O)CC3)cc2)cn1	COLO 205	gene expression, microarray, measured: DDB2 mRNA		concentration not given, 6 h	reference: untreated cells	log2 fold change	2.06
CN1CCC(CNc2ccc3ncc(-c4cccc(OC(F)(F)F)c4)n3n2)CC1	Rho-associated protein kinase 1 (ROCK1, Homo sapiens, UniProt Q13464)	binding, KINOMEscan binding		top concentration 10 µM		IC50	0.508 µM
CC(=O)/C=C/C1=C(C)CCCC1(C)C	uncharacterized protein (Drosophila suzukii, UniProt A0AB39ZGK5)	binding, bis-ANS competition fluorescence		pH 7.4, with: bis-ANS		IC50	7.05 µM
CC(C)[C@H](NC(=O)OCc1ccccc1)C(=O)N[C@H](C=O)Cc1ccccc1	Calpain-2 catalytic subunit (Homo sapiens, UniProt P17655)					IC50	0.11 ± 0.01 µM
CC/C=C\CCO	uncharacterized protein (Bradysia odoriphaga, UniProt A0A2S0X9G4)	binding, competitive fluorescence displacement		pH 7.4		IC50	> 50 µM
O=C(Nc1cccc(F)c1)c1ccc2c(c1)C(=O)NC2=O	MAOA					IC50	> 40 µM
Cc1cc(N)c2c(C)nn(-c3ccccc3)c2n1	fabG	enzyme activity, inhibitor, NADPH fluorescence		reverse reaction, geometric mean, with: 3-OH-decanoyl-NAC, NADP		IC50	2.3 µM
Cc1ccc(S(=O)(=O)Nc2ccc(-c3nc4ccc(NS(=O)(=O)c5ccc(C)cc5)cc4[nH]3)cc2)cc1	TST	enzyme activity, inhibitor		native rhodanese counter-screen		IC50	> 100 µM
O=C(Nc1ccccc1F)c1ccc2c(c1)C(=O)NC2=O	MAOA					IC50	> 40 µM
CC[C@@H]1[C@H](F)C(=O)N[C@@H]1COc1nccc2cc(C(N)=O)c(OC)cc12	Calcium/calmodulin-dependent protein kinase kinase 2 (CAMKK2, Homo sapiens, UniProt Q96RR4)	ATP-site probe binding, ActivX profiling	THP-1 cell lysate	Lys2 site		IC50	2.9 µM
Cc1cnc(-c2ccc(-c3ccc(NC(=O)Nc4c(F)cc(F)cc4F)cc3F)c3c2C(=O)NC3)[nH]1	Cytoplasmic tyrosine-protein kinase BMX (BMX, Homo sapiens, UniProt P51813)	enzyme activity, inhibitor, mobility shift		with: ATP 1 mM		IC50	0.0091 µM
COc1ccc(S(=O)(=O)Nc2ccc3oc(-c4ccc(NC(=O)C5CCN(C(C)=O)CC5)cc4)nc3c2)cc1	TST	enzyme activity, inhibitor		native rhodanese counter-screen		IC50	> 100 µM
c1cc(-c2cc3ncc(OCC4CCNCC4)nc3cc2-c2cccc(N3CCCCC3)c2)cc(N2CCCCC2)c1	Protein ENL, with AF4 (MLLT1, Homo sapiens, UniProt Q03111)	AlphaScreen				IC50	0.65 ± 0.01 µM
CCCCC=O	uncharacterized protein (Bradysia odoriphaga, UniProt A0A2S0X9G4)	binding, competitive fluorescence displacement		pH 7.4		IC50	> 50 µM
O=C(/C=C/c1ccc(O)cc1)CC(=O)/C=C/c1ccc(O)cc1	Sarcoplasmic/endoplasmic reticulum calcium ATPase 1 (ATP2A1, Oryctolagus cuniculus, UniProt P04191)	ATPase activity, inhibitor	rabbit hind leg microsomes	pH 7.3, with: 0.22 mM ATP		IC50	250 µM
O=C(Nc1ccc(Cl)c(Br)c1)c1ccc2c(c1)C(=O)NC2=O	MAOA					IC50	> 40 µM
Cc1[nH]c(N)nc1CCC(=O)c1ccccc1	Voltage-gated hydrogen channel 1 (HVCN1, Homo sapiens, UniProt Q96D96)	proton current, inhibitor, inside-out patch clamp	Xenopus laevis oocytes	pH 6.0		IC50	72.1 ± 3.7 µM
O=S(=O)(Nc1ccc(-c2nc3cc(NS(=O)(=O)c4ccc(Br)cc4)ccc3o2)cc1)c1ccc(Br)cc1	TST	enzyme activity, inhibitor		native rhodanese counter-screen		IC50	> 100 µM
CCCCCC/C=C\CCCCCCCCCCCCCCC	uncharacterized protein (Drosophila suzukii, UniProt A0AB39ZCT4)	binding, bis-ANS competition fluorescence		pH 7.4, with: bis-ANS		IC50	> 50 µM
COc1c(Br)cccc1C(=O)Nc1ccc(Sc2nc3ccccc3s2)cc1	TST	enzyme activity, inhibitor		native rhodanese counter-screen		IC50	> 100 µM
C=CC(C)(O)CCC=C(C)C (stereo not drawn)	uncharacterized protein (Bradysia odoriphaga, UniProt A0A2S0X9G4)	binding, competitive fluorescence displacement		pH 7.4		IC50	> 50 µM
O=C(CCCCCCC(=O)Nc1ccc(CCF)cc1)NO	Polyamine deacetylase HDAC10 (HDAC10, Homo sapiens, UniProt Q969S8)					IC50	0.169 µM

Some of these lines once more:
Structure (SMILES)	target or system	test	system	conditions	how to read	endpoint	value
O=C(O)c1ccc(NS(=O)(=O)c2ccc(Cl)c(Cl)c2)c2ncccc12	Estradiol 17-beta-dehydrogenase 11 (Homo sapiens, UniProt Q8NBQ5)	enzyme activity, inhibitor		with: 20-HETE ethanolamide substrate		IC50	> 100 µM
COc1ccc2c(c1)CN(C(=O)CCN1CCC(Cc3ccccc3)CC1)CC[S@@+]2[O-]	Potassium voltage-gated channel subfamily KQT member 1, with KCNE1 (KCNQ1, Homo sapiens, UniProt P51787)	IKs current, inhibitor, whole-cell patch clamp	stable cell line			IC50	> 100 µM
NS(=O)(=O)c1ccc(Nc2nc(-c3ccc(F)cc3F)cs2)cc1	fabG	enzyme activity, inhibitor, NADPH fluorescence		reverse reaction, geometric mean, with: 3-OH-decanoyl-NAC, NADP		IC50	11.5 µM
Cn1cc(-c2ccc(-c3cncc(Cl)c3N3CCC4(CCNC4=O)CC3)cc2)cn1	COLO 205	gene expression, microarray, measured: DDB2 mRNA		concentration not given, 6 h	reference: untreated cells	log2 fold change	2.06
CN1CCC(CNc2ccc3ncc(-c4cccc(OC(F)(F)F)c4)n3n2)CC1	Rho-associated protein kinase 1 (ROCK1, Homo sapiens, UniProt Q13464)	binding, KINOMEscan binding		top concentration 10 µM		IC50	0.508 µM
CC(=O)/C=C/C1=C(C)CCCC1(C)C	uncharacterized protein (Drosophila suzukii, UniProt A0AB39ZGK5)	binding, bis-ANS competition fluorescence		pH 7.4, with: bis-ANS		IC50	7.05 µM
